{"data": "Results pooled from the literature", "target": "Serine/threonine-protein kinase/endoribonuclease IRE1 (ERN1, Homo sapiens, UniProt O75460)", "note": "“And” joins repeats or separate records; there may be more than shown."}
{"SMILES": "Nc1ncc(-c2cc(-c3cnn(CC(F)(F)F)c3)ncc2F)nc1C(=O)NC1CNCC(F)C1 (centres unmarked)", "assay": "enzyme activity", "conditions": "1 µM", "how to read": "reference: DMSO control", "endpoint": "remaining activity", "result": "35.8%"}
{"SMILES": "C=CC(=O)N1CCc2ccc(-n3c(=O)ccc4cnc5ccc(-c6cnn(C)c6)cc5c43)cc21", "assay": "KINOMEscan", "conditions": "1 µM", "how to read": "reference: DMSO control", "endpoint": "remaining binding", "result": "94%"}
{"SMILES": "CCN1CCN(Cc2ccc(C(=O)Nc3ccc(C)c(NCc4cnc5[nH]ccc5c4OC)c3)cc2C(F)(F)F)CC1", "assay": "binding, competition with immobilised ligand", "conditions": "1 µM", "endpoint": "remaining binding", "result": "12%"}
{"SMILES": "CCn1cc(C(=O)O)c(=O)c2c(N)c(F)c(NC3CCCCC3)cc21", "assay": "kinase activity", "conditions": "0.1 µM, together with: ATP at Km", "endpoint": "inhibition", "result": "10.2%"}
{"SMILES": "CNC(=O)C1CCN(c2cc(C)c(F)cc2NC(=O)c2ccc(-c3cc(O)ccc3C)c(C)c2)CC1", "assay": "binding, competition with immobilised ligand", "conditions": "1 µM", "endpoint": "remaining binding", "result": "98%"}
{"SMILES": "CNC1C[S+]2CC[S+]3CC[S+](C1)[Ru-4]321([N]=C=S)[n]2c3ccc(OC)cc3c3c4c(c5cc(F)c[n+]1c5c32)C(=O)NC4=O (centres unmarked)", "assay": "KinomeScan", "conditions": "0.1 µM", "how to read": "reference: untreated", "endpoint": "remaining binding", "result": "100%"}
{"SMILES": "Cc1nc2c(F)cc(-c3nc(Nc4ccc(CNC(=O)CCCCCCC(=O)NO)cc4)ncc3F)cc2n1C(C)C", "assay": "enzyme activity, inhibitor", "conditions": "1 µM", "endpoint": "inhibition", "result": "57%"}
{"SMILES": "CNC(=O)C[C@H](Cc1ccc(C#N)cc1)NC(=O)c1cc(-c2ccc(CN[C@H](C)c3ccc(C)cc3)o2)ccc1Cl", "assay": "enzyme activity, inhibitor", "conditions": "1 µM", "endpoint": "activity vs control", "result": "95%"}
{"SMILES": "CC(C)=CC1OC(C)(C)C2C=C3C(=O)C(Cl)=CC(O)C3C3C(O)C4OC4C(=O)C132 (centres unmarked)", "assay": "cell-free assay, competition with immobilised ligand", "conditions": "10 µM", "endpoint": "remaining binding", "result": "84%"}
{"SMILES": "CN1CCN(Cc2ccc(-c3ccc(CO[C@H]4CCC[C@@H]4NC(=O)c4cc(-c5cnn(C)c5)cnc4N)cc3)cc2)CC1", "assay": "enzyme activity, inhibitor", "conditions": "0.1 µM", "endpoint": "inhibition", "result": "6%"}
{"SMILES": "C=CC(=O)N1CCCC(n2c(=O)c3ncccc3n(Cc3ccc(Oc4ccccc4)cc3)c2=O)C1 (centres unmarked)", "assay": "cell-free assay, competition with immobilised ligand", "conditions": "1 µM", "endpoint": "remaining binding", "result": "90%"}
{"SMILES": "CS(=O)(=O)Nc1cccc(-c2csc3cnc(Nc4ccc(N5CCN(CCCCCOc6cccc7c6C(=O)N(C6CCC(=O)NC6=O)C7=O)CC5)cc4)nc23)c1 (centres unmarked)", "assay": "probe labelling, inhibitor, KiNativ chemoproteomics", "test system": "MOLT-4", "conditions": "1 µM", "endpoint": "inhibition", "result": "-26.5%"}
{"SMILES": "C=CC(=O)N1Cc2nc(-c3cc(-c4cc(Cl)cnc4Cl)c(F)cc3F)n(-c3ccncn3)c2C1", "assay": "cell-free assay, inhibitor", "conditions": "1 µM", "endpoint": "inhibition", "result": "3.6%"}
{"SMILES": "CN1CC[C@@H](COc2cnc(C#N)cc2-c2ccn3nc(NC(=O)C4CC4)cc3c2)C1", "assay": "enzyme activity, inhibitor", "conditions": "1 µM", "endpoint": "inhibition", "result": "3%"}
{"SMILES": "COc1c(Cl)cccc1Nc1c(-c2ccncc2C#C[C@@]2(C)CCCN2C(=O)/C=C/CN(C)C)[nH]c2c1C(=O)NCC2", "assay": "cell-free assay, competition with immobilised ligand", "conditions": "3 µM", "endpoint": "remaining binding", "result": "55%"}
{"SMILES": "Cc1cnc2nc1Nc1cccc(c1)COC/C=C/COCc1cc(ccc1OCCN1CCOCC1)N2", "assay": "binding", "conditions": "0.1 µM", "endpoint": "remaining binding", "result": "83%"}
{"SMILES": "N[C@H]1CC[C@H](Nc2nccc(-c3cccnc3Oc3ccc(NC(=O)NC4CC4)c4ccccc34)n2)CC1", "assay": "kinobead competition pulldown", "test system": "HEK293/HCT116 lysate mixture", "conditions": "10 µM, 1 h, 4 °C", "how to read": "lower = stronger competition", "endpoint": "log2 LFQ intensity", "result": "23.3 and 24.7 and 21.8 and 23.2"}
{"SMILES": "Nc1ncc2c(n1)-c1c([nH]c3ccc(C4=CCOCC4)cc13)CCC2", "assay": "binding, competition with immobilised ligand", "conditions": "1 µM", "endpoint": "remaining binding", "result": "63%"}
{"SMILES": "Cc1ccc(-c2c(/C=C(\\C#N)C(=O)NC(C)C)n(CCCO)c3ncnc(N)c23)cc1", "assay": "cell-free assay, competition with immobilised ligand", "conditions": "1 µM", "endpoint": "remaining binding", "result": "100%"}
{"SMILES": "COc1cc(Nc2nccc(-c3cnn4nc(OC)ccc34)n2)cc(C(F)(F)F)c1", "assay": "binding, competition with immobilised ligand", "conditions": "1 µM", "endpoint": "remaining binding", "result": "74%"}
{"SMILES": "C=CC(=O)Nc1cc(-c2nn(C3CCN(CCNC(=O)[C@H](C)CCC45CC6CC(CC(C6)C4)C5)CC3)c3ncnc(N)c23)ccc1Oc1ccccc1", "assay": "inhibitor, KiNativ profiling", "test system": "biochemical", "conditions": "2 µM", "endpoint": "inhibition", "result": "-4.8%"}
{"SMILES": "COc1cc(Nc2nc(C)cc(-c3cnn4nc(OC)ccc34)n2)cc(C(F)(F)F)c1", "assay": "inhibitor", "conditions": "1 µM", "how to read": "reference: control", "endpoint": "remaining activity", "result": "100%"}
{"SMILES": "O=C(Cc1ccc(OCc2ccccc2)cc1)NC1(C(=O)O)CCN(C(=O)c2ccc(-c3cccc(Cl)c3)cc2)CC1", "assay": "enzyme activity, inhibitor", "conditions": "10 µM", "endpoint": "activity vs control", "result": "101%"}
{"note": "Repeated from above:"}
{"SMILES": "COc1cc(Nc2nccc(-c3cnn4nc(OC)ccc34)n2)cc(C(F)(F)F)c1", "assay": "binding, competition with immobilised ligand", "conditions": "1 µM", "endpoint": "remaining binding", "result": "74%"}
{"SMILES": "C=CC(=O)Nc1cc(-c2nn(C3CCN(CCNC(=O)[C@H](C)CCC45CC6CC(CC(C6)C4)C5)CC3)c3ncnc(N)c23)ccc1Oc1ccccc1", "assay": "inhibitor, KiNativ profiling", "test system": "biochemical", "conditions": "2 µM", "endpoint": "inhibition", "result": "-4.8%"}
{"SMILES": "COc1cc(Nc2nc(C)cc(-c3cnn4nc(OC)ccc34)n2)cc(C(F)(F)F)c1", "assay": "inhibitor", "conditions": "1 µM", "how to read": "reference: control", "endpoint": "remaining activity", "result": "100%"}
